{"data": "Measurements from different studies", "GBA1 R534H": "Lysosomal acid glucosylceramidase (GBA1, Homo sapiens, UniProt P04062, R534H)", "note": "± gives the spread as reported.", "sequence of UniProt P04062 (whole entry, unmodified, looked up)": "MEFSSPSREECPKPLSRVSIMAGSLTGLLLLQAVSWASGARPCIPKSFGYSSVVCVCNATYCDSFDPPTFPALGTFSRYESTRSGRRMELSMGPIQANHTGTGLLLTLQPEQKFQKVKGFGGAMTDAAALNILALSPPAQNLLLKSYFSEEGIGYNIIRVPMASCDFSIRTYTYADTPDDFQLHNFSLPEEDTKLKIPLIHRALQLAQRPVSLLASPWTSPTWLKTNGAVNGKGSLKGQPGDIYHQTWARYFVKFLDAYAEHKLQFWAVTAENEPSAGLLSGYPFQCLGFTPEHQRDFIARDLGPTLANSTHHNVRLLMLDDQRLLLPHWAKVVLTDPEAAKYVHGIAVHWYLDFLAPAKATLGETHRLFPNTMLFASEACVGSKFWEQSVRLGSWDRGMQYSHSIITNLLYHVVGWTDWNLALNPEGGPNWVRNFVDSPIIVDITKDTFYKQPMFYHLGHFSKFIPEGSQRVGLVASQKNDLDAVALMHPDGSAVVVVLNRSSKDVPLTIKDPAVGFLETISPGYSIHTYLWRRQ"}
{"Structure (SMILES)": "OC[C@@H]1[C@@H](O)[C@H](O)[C@@H](O)CN1CCCCCOCc1ccc(-c2ccccc2)cn1", "tested on": "GBA1 R534H", "test": "inhibitor, 4MU-β-D-glucopyranoside", "conditions": "added: 4MU-β-D-glucopyranoside", "endpoint": "IC50", "value": "1.5 µM"}
{"Structure (SMILES)": "O=C(NCC1OC2CCC=CCCC2O1)c1ccc(COCCOCCOCC[18F])cc1 (stereo not drawn)", "test system": "healthy female BALB/c nude mice, spleen", "conditions": "intravenous, 7.4 MBq per mouse, 15 min", "endpoint": "tissue uptake", "value": "3.1 ± 0.2 %ID/g"}
{"Structure (SMILES)": "COc1cccc(OC)c1-c1cc(C(=O)NC2(C(=O)O)C3CC4CC(C3)CC2C4)nn1-c1ccc(C(=O)NCCNC(=O)[C@H](CCCCNC(=O)[C@H](CC(C)C)NC(=O)C2OC2C(=O)O)NC(=O)CN2CCN(CC(=O)[O-])CCN(CC(=O)[O-])CCN(CC(=O)[O-])CC2)cc1C(C)C.[177Lu+3] (mixture of isomers)", "test system": "mouse, HT-29 xenograft, lung", "conditions": "4 h post injection", "endpoint": "tissue uptake", "value": "2.1 %ID/g"}
{"Structure (SMILES)": "O=C(O)CCCOc1ccc([18F])cc1-c1cc(-c2ccccc2C(F)(F)F)n(-c2ccccc2)n1", "test system": "mouse, urine", "conditions": "intravenous, dose not given, 360 min", "endpoint": "tissue uptake", "value": "0.58 ± 0.15 %ID/g"}
{"Structure (SMILES)": "COc1cccc(OC)c1-c1cc(C(=O)NC2(C(=O)O)C3CC4CC(C3)CC2C4)nn1-c1ccc(C(=O)N(C)CCCN(C)C(=O)[C@H](CCCCNC(=O)[C@H](CC(C)C)NC(=O)C2OC2C(=O)O)NC(=O)CN2CCN(CC(=O)[O-])CCN(CC(=O)[O-])CCN(CC(=O)[O-])CC2)cc1C(C)C.[177Lu+3] (mixture of isomers)", "test system": "mouse, HT-29 xenograft, lung", "conditions": "72 h post injection", "endpoint": "tissue uptake", "value": "0.24 %ID/g"}
{"Structure (SMILES)": "CC(=O)N([O-])CCCCCNC(=O)CCC(=O)N([O-])CCCCCNC(=O)CCC(=O)N([O-])CCCCCN.[89Zr+4]", "test": "gamma counting", "test system": "healthy Balb/c mice, muscle", "conditions": "intravenous, 1 h, 89Zr-labelled complex", "endpoint": "tissue uptake", "value": "0.13 ± 0.03 %ID/g"}
{"Structure (SMILES)": "O=C(c1ccc([N+](=O)[O-])o1)N1CCc2ccccc2C1", "tested on": "Trypanosoma cruzi", "test": "reporter mRNA translation, inhibitor, item: capped polyadenylated Renilla luciferase mRNA", "test system": "cell-free extract", "conditions": "concentration not given", "how to read": "relative to: control RNA", "endpoint": "relative translation", "value": "109%"}
{"Structure (SMILES)": "CC(C)Cc1ccc(C(C)C(=O)N[C@@H](CCCCNC(=O)CCOCCOCCOCCOCCOCCOCCNC(=O)CN2CCN(CC(=O)[O-])CCN(CC(=O)[O-])CCN(CC(=O)[O-])CC2)C(=O)Nc2cccc3c(C(=O)NCC(=O)N4CC(F)(F)C[C@H]4C#N)ccnc23)cc1.[177Lu+3] (stereo partly drawn)", "test system": "mouse, U-87 MG tumour xenograft, brain", "conditions": "24 h", "endpoint": "tissue uptake", "value": "0.04 ± 0.01 %ID/g"}
{"Structure (SMILES)": "O=Cc1c(O)c(C=O)c(O)c(C=O)c1O", "test": "reaction with N-acetyl-lysine, HPLC-MS", "conditions": "pH 10.2, added: N-α-acetyl-lysine", "endpoint": "pseudo-first-order rate constant", "value": "15.8 h⁻¹"}
{"Structure (SMILES)": "[11CH3]N1CCC(NC(=O)c2cc(-c3c(O)cc(O)cc3Oc3ccc([N+](=O)[O-])cc3)on2)CC1", "test system": "Wistar rat, female, healthy, kidneys", "conditions": "intravenous, 60 min", "endpoint": "tissue uptake", "value": "2.1 ± 0.4 %ID"}
{"Structure (SMILES)": "CC(C)c1noc(C2CCN(c3ncnc(Nc4ccc(OCC[18F])cc4)c3[N+](=O)[O-])CC2)n1", "test": "ex vivo biodistribution after PET", "test system": "C57BL/J male mice, muscle", "conditions": "60 min", "endpoint": "tissue uptake", "value": "0.11 ± 0.05 %ID/g"}
{"Structure (SMILES)": "CCCC[C@H](NC(=O)CNC(=O)CNC(=O)[C@H](CCCCNC(=O)[C@H](CC(=O)O)NC(=O)C(C)c1ccc(CC(C)C)cc1)NC(=O)CN1CCN(CC(=O)O)CCN(CC(=O)O)CCN(CC(=O)O)CC1)C(=O)N[C@H]1CC(=O)NCCCC[C@@H](C(N)=O)NC(=O)[C@H](Cc2c[nH]c3ccccc23)NC(=O)[C@H](CCCNC(=N)N)NC(=O)[C@@H](Cc2ccccc2)NC(=O)[C@H](Cc2c[nH]cn2)NC1=O (stereo partly drawn) [lutetium-177 labelled]", "test system": "C57 mouse, intestines", "conditions": "intravenous, 0.037 MBq, 24 h", "endpoint": "tissue uptake", "value": "1.89 ± 0.6 %ID"}
{"Structure (SMILES)": "Cc1nc(N)nc2c1C(=O)N[C@@H](c1ccc(F)cc1-c1cccc(OCC[18F])n1)C2", "test": "ex vivo biodistribution", "test system": "C57BL/6 mice, lungs", "conditions": "intravenous, 1 MBq, 30 min", "endpoint": "tissue uptake", "value": "1.06 ± 0.05 %ID"}
{"Structure (SMILES)": "CCCCCCCN1C[C@H](O)[C@@H](O)[C@H](O)[C@@H]1CO", "tested on": "GBA1 R534H", "test": "inhibitor, 4MU-β-D-glucopyranoside", "conditions": "added: 4MU-β-D-glucopyranoside", "endpoint": "IC50", "value": "700 µM"}
{"Structure (SMILES)": "COc1cccc(OC)c1-c1cc(C(=O)NC2(C(=O)O)C3CC4CC(C3)CC2C4)nn1-c1ccc(C(=O)N(C)CCOCCN(C)C(=O)[C@H](CCCCNC(=O)[C@H](CC(C)C)NC(=O)C2OC2C(=O)O)NC(=O)CN2CCN(CC(=O)[O-])CCN(CC(=O)[O-])CCN(CC(=O)[O-])CC2)cc1C(C)C.[177Lu+3] (mixture of isomers)", "test system": "mouse, HT-29 xenograft, brain", "conditions": "4 h post injection", "endpoint": "tissue uptake", "value": "0.18 %ID/g"}
{"Structure (SMILES)": "[123I]c1ccc2nc(-c3ccc(-n4ccnn4)nc3)cn2c1", "test system": "Wistar rat, male, adrenals", "conditions": "intravenous, 4 MBq, 1 h", "endpoint": "tissue uptake", "value": "7.75 ± 0.994 %ID/g"}
{"Structure (SMILES)": "CN(C)CCCN(C(=O)c1nc2ccccc2s1)c1nc2ccc(F)cc2s1", "tested on": "Trypanosoma cruzi", "test": "reporter mRNA translation, inhibitor, item: capped polyadenylated Renilla luciferase mRNA", "test system": "cell-free extract", "conditions": "concentration not given", "how to read": "relative to: control RNA", "endpoint": "relative translation", "value": "102%"}
{"Structure (SMILES)": "COc1cccc(OC)c1-c1cc(C(=O)NC2(C(=O)O)C3CC4CC(C3)CC2C4)nn1-c1ccc(C(=O)N(C)CCCN(C)CCCN(C)C(=O)[C@H](CCCCNC(=O)[C@H](CC(C)C)NC(=O)C2OC2C(=O)O)NC(=O)CN2CCN(CC(=O)[O-])CCN(CC(=O)[O-])CCN(CC(=O)[O-])CC2)cc1C(C)C.[177Lu+3] (mixture of isomers)", "test system": "mouse, HT-29 xenograft, brain", "conditions": "4 h post injection", "endpoint": "tissue uptake", "value": "0.36 %ID/g"}
{"Structure (SMILES)": "N#C[C@@H]1CC(F)(F)CN1C(=O)CNC(=O)c1ccnc2c(NC(=O)CCOCCOCCOCCOCCOCCOCCNC(=O)[C@H](CCCCNC(=O)CN3CCN(CC(=O)[O-])CCN(CC(=O)[O-])CCN(CC(=O)[O-])CC3)NC(=O)CCCc3ccc(I)cc3)cccc12.[177Lu+3]", "test system": "mouse, U-87 MG tumour xenograft, brain", "conditions": "1 h", "endpoint": "tissue uptake", "value": "0.15 ± 0.03 %ID/g"}
{"Structure (SMILES)": "COc1cccc(OC)c1-c1cc(C(=O)NC2(C(=O)O)C3CC4CC(C3)CC2C4)nn1-c1ccc(C(=O)N(C)CCOCCOCCN(C)C(=O)[C@H](CCCCNC(=O)[C@H](CC(C)C)NC(=O)C2OC2C(=O)O)NC(=O)CN2CCN(CC(=O)[O-])CCN(CC(=O)[O-])CCN(CC(=O)[O-])CC2)cc1C(C)C.[177Lu+3] (mixture of isomers)", "test system": "mouse, HT-29 xenograft, muscle", "conditions": "72 h post injection", "endpoint": "tissue uptake", "value": "0.12 %ID/g"}
{"Structure (SMILES)": "N#C[C@@H]1CC(F)(F)CN1C(=O)CNC(=O)c1ccnc2c(NC(=O)[C@H](CCCCNC(=O)CCOCCOCCOCCOCCOCCOCCNC(=O)CN3CCN(CC(=O)[O-])CCN(CC(=O)[O-])CCN(CC(=O)[O-])CC3)NC(=O)CCCc3ccc(I)cc3)cccc12.[177Lu+3]", "test system": "mouse, U-87 MG tumour xenograft, kidneys", "conditions": "72 h", "endpoint": "tissue uptake", "value": "0.82 ± 0.22 %ID/g"}
{"note": "Excerpt of the above:"}
{"Structure (SMILES)": "COc1cccc(OC)c1-c1cc(C(=O)NC2(C(=O)O)C3CC4CC(C3)CC2C4)nn1-c1ccc(C(=O)N(C)CCCN(C)CCCN(C)C(=O)[C@H](CCCCNC(=O)[C@H](CC(C)C)NC(=O)C2OC2C(=O)O)NC(=O)CN2CCN(CC(=O)[O-])CCN(CC(=O)[O-])CCN(CC(=O)[O-])CC2)cc1C(C)C.[177Lu+3] (mixture of isomers)", "test system": "mouse, HT-29 xenograft, brain", "conditions": "4 h post injection", "endpoint": "tissue uptake", "value": "0.36 %ID/g"}
{"Structure (SMILES)": "N#C[C@@H]1CC(F)(F)CN1C(=O)CNC(=O)c1ccnc2c(NC(=O)CCOCCOCCOCCOCCOCCOCCNC(=O)[C@H](CCCCNC(=O)CN3CCN(CC(=O)[O-])CCN(CC(=O)[O-])CCN(CC(=O)[O-])CC3)NC(=O)CCCc3ccc(I)cc3)cccc12.[177Lu+3]", "test system": "mouse, U-87 MG tumour xenograft, brain", "conditions": "1 h", "endpoint": "tissue uptake", "value": "0.15 ± 0.03 %ID/g"}
{"Structure (SMILES)": "COc1cccc(OC)c1-c1cc(C(=O)NC2(C(=O)O)C3CC4CC(C3)CC2C4)nn1-c1ccc(C(=O)N(C)CCOCCOCCN(C)C(=O)[C@H](CCCCNC(=O)[C@H](CC(C)C)NC(=O)C2OC2C(=O)O)NC(=O)CN2CCN(CC(=O)[O-])CCN(CC(=O)[O-])CCN(CC(=O)[O-])CC2)cc1C(C)C.[177Lu+3] (mixture of isomers)", "test system": "mouse, HT-29 xenograft, muscle", "conditions": "72 h post injection", "endpoint": "tissue uptake", "value": "0.12 %ID/g"}
